Experimental data gathered from unrelated publications.
Compare with care: the assays were run in different laboratories.

C[C@@H](N)c1cc(Cl)ccc1Cn1c(=S)[nH]c(=O)c2[nH]ccc21 — CL/F (human, plasma; oral, 10 mg, multiple doses, once daily, healthy volunteers): 27.6 L/h
CN1CC[C@@H](NC(=O)Nc2ccc(C#N)cc2)C[C@@H]1c1nc2ccccc2[nH]1 — clearance (human, plasma; intravenous, 50 mg, single dose, healthy volunteers): 218 mL/min
COc1cccc(OCCCN)c1-c1cc(Nc2cnc(C#N)cn2)n[nH]1 — clearance (human, plasma; intravenous, 80 mg/m², patients, infusion): 1310 mL/min
O=C1CCc2cc(OC[C@H](O)CN3CCN(c4ccc(C(F)(F)F)cc4)CC3)ccc2N1 — clearance (human, plasma; intravenous, 25 mg, multiple doses, once daily, steady state): 200 mL/min
C[C@@H]1CCC[C@H](n2cnc(-c3cc(Cl)ccc3-n3cc(Cl)nn3)cc2=O)c2cc(ccn2)-c2c(cnn2C(F)F)NC1=O — renal clearance (human, urine; oral, 60 mg, single dose): 26.9 mL/min
O=C(NC[C@H]1CN(c2ccc(N3CCOCC3=O)cc2)C(=O)O1)c1ccc(Cl)s1 — renal clearance (human, urine; oral, 10 mg): 35.3 mL/min
O=C(O)C[C@H](O)C[C@H](O)/C=C/c1c(C2CC2)nc2ccccc2c1-c1ccc(F)cc1 — clearance (female human, plasma; oral, 2 mg, multiple doses): 146 mL/min
CS(=O)(=O)n1cc2c(n1)CN([C@H]1CO[C@H](c3cc(F)ccc3F)[C@@H](N)C1)C2 — renal clearance (male human, urine; oral, 50 mg, single dose, fasted, healthy volunteers): 40 mL/min

A few entries again:
O=C(O)C[C@H](O)C[C@H](O)/C=C/c1c(C2CC2)nc2ccccc2c1-c1ccc(F)cc1 — clearance (female human, plasma; oral, 2 mg, multiple doses): 146 mL/min
